Measured values pooled from the literature.
Each numbered part is a random draw from the data of one study; scales do not carry over between parts.

Series 1
Target: RNA binding protein fox-1 homolog 2, RRM domain, GST-SBP tag (RBFOX2, Homo sapiens, UniProt O43251-10, residues 100-194)
Method: RNA Bind-n-Seq
Molecule type: RNA
Medium: in vitro
Tested at: 365 nM
Notes: natural RNA segment, single round, ends assumed
Reference: no-protein control
Reading: higher = stronger binding
Quantity: RBNS enrichment (R)
Constant ends, left off below: GGGAGUUCUACAGUCCGACGAUC … UGGAAUUCUCGGGUGCCAA
Residues (chain): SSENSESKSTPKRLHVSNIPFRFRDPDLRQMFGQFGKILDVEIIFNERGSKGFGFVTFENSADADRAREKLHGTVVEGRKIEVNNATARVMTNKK
AUGCUUUGUGGGAGUCUGGGUCGGCACACUGUCAGUACAUCAGGCACAUGGGCCCACUAGGCUGGGGUUUCUGGUUUUGUUUCUGUUGUGUUUUGUUUUGGUUUCUGUAU: 1.43
GAUGUUAUUUGGCCAUCUCCUGGUUAUAUACAAAUGUGACCCGUGAUAAUGUGAUUGAACACUUUAGUAAUGCAAAAUAACUCAUUUCCAACUACUGCUGCAGCAUUUUG: 0.357
UGUGGGUAUGGCUAAUGAGUUCUGAUUCACCCACGAAGGUUACAUUUAUGCUGAAUACAUUUGUAAAUACUCAGUUUUAUACUGUAUGUAUAUGAUUGCUACUCUAAAGG: 0.495
UAUUUCUUUUCUCCCUGCUCUUGAGUGUCCUUGUCCUGCCCUCCCAUUCCAGCCGUGAUGAGCAUUGUGAUCCGAGUGGGUGCCACGUGAGAGAGGGACUGUCACUUUCC: 1.33
GUACAGUCCUGGGGGUAAGGGGAUGACAUGCCCAGGUGUCAGCUCAAAGGAUCUCUGCAUCAUCUUGAGGUGGGAGGCAGGGAAAGGAGCGCCAAUGAGGUUCCCUGCAA: 0.937
GGUUUUUAAAAUAAGGUUUUCUAGUUUUGAGAGUGUGCACUUCACACAGGGGAAUGGGGUUACUUCUGUCUGAUCCUGGGCCUUUCUUUCAUCCCAAAUGACAAGGAAUG: 0.612
UCUCUUCUGCAAAUGAACAAAACAAAACAUAAAGGUGGUUGUUGUAAGCUAAGUAUAUUUGUGGAGGGAGAAGAUAUGUUUUUAUAAAGUUAUUCUAAUGGCUAUUUGUG: 0.768
GCGGCUUCUGAAAGUGCCUUGGUGUGAGAAGGAGGAAGGGGCCGCUUGGAGAGCUGGGCUCUCGCAUGUCAUGUUUAGCCCACUGAGAAUAUACCCUCAGGUGACUCCCU: 8.49
AGCCAGGAUUCUGGCCCAGGGCGCCUCCUCCCGACUGAGCAGAGCCAGACAGACAUUCCUGAGGGGCCCAGAAAUGGGGCCGGUUGGAGGGCAGGGGCUCUCCCUAGGGG: 0.384
CUGCACUCCAGCCUGGGCAACACAGCGAGACUCCGUCUCGAGGAAAAAAAAAGAAAAGAUACGUGCCUGCGGUGAGGAAGCUGGGCGCUGUUUUCGAGUUCAGGUGAAUU: 0.435
AGCCAACUUGUGUUCUGGGUUUGAAAAAGACCCACCACAAAUGCUUUUUCUAUUUUCUGAUUUAAAAGUCGCUUUUGAAUAUGACCAUGAGAAACCAAGAAAUGCUGCUU: 0.718
UUCACUCUGACACUGUCUUAUUCUGCUGCCACAAUGCAAGCAUAGUUUGUUAUUUUUGUUACUGCCUUUUUUGAGAGAUUAUGUAUCUAUAUAGCUACCUGUCUAGAUCU: 0.654

Series 2
Target: Histone acetyltransferase KAT6A, winged helix 2, GST fusion (KAT6A, Homo sapiens, UniProt Q92794, residues 85-181)
Method: protein binding microarray
Molecule type: double-stranded DNA, one strand shown
Medium: in vitro
Tested at: not given
Notes: 8-mer, flanks averaged, mean of 2 arrays, mostly near background
Reference: not given
Reading: higher = stronger binding
Quantity: E-score
Target sequence (chain): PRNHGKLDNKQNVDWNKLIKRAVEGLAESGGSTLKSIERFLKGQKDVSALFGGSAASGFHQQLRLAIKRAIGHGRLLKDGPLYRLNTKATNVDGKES
AAACTCGA: -0.0708
AGTGTACG: -0.154
AGTAACCG: -0.0713
CAGTCCGA: 0.0787
ACACCTGG: -0.0131
ATGGTTTA: -0.0444
GGCTTTCA: 0.144
CTTAATAA: 0.0943
GATGTCAC: -0.0198
GCCATCAA: -0.198
ATCGCGAC: 0.142
ACAGTAGG: -0.0203
ACTTCATA: -0.155
ACGCTCGG: 0.051
CCGAAAAG: 0.0505
CGCATACA: 0.0487

Series 3
Target: Sal-like protein 4, full length isoform B (SALL4, Homo sapiens, UniProt Q9UJQ4-2, residues 1-616)
Method: universal PBM
Molecule type: double-stranded DNA, one strand shown
Medium: in vitro
Tested at: not given
Notes: 8-mer, flanks averaged, mean of replicates
Reading: higher = stronger binding
Quantity: E-score
Construct (chain): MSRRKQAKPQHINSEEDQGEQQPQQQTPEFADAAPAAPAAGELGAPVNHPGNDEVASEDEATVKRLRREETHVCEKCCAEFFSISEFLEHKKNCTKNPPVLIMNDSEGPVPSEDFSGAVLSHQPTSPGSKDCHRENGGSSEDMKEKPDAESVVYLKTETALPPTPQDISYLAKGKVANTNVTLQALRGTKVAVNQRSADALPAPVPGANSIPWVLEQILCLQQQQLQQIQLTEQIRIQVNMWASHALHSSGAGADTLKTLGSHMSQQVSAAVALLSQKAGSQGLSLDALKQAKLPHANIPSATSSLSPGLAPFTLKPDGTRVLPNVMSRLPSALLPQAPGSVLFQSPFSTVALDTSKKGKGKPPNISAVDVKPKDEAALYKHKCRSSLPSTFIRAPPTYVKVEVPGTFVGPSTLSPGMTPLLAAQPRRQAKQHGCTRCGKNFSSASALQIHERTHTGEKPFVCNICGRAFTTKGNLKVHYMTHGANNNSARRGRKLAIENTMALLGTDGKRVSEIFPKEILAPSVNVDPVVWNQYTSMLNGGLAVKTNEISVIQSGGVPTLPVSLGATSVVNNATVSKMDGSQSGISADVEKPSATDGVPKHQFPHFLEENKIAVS
CAGGCCTA: -0.162
ACCGGAAG: -0.103
GGACGTCA: -0.143
CTCTTCAC: -0.0282
AGGGGTAC: -0.191
ATTGTACA: 0.227
CCCTAGAC: -0.0468
CGCTTCCG: -0.172
CCGTGTTC: -0.141
ACAAAAGC: 0.149
AACTGAGG: -0.0253
AAACTCAT: 0.214
TAGTAGGA: -0.0499
ATGACGTG: -0.0332
AAAGAAAG: 0.154
CCGATCCC: -0.271

Series 4
Target: Interferon regulatory factor 5, full length, phosphomimetic (IRF5, Homo sapiens, UniProt Q13568-2, residues 1-514, K96S/S451D/S453D/S456D/S462D)
Method: protein-binding microarray
Molecule type: double-stranded DNA, one strand shown
Medium: in vitro
Tested at: 250 nM
Notes: 60-bp whole probe
Together with: salmon DNA 0.4 mg/ml
Reference: random background probes
Reading: higher = stronger binding
Quantity: log fluorescence
Constant ends, left off below: GCCTAGCAC … GTCTTGATTCGCTTGACGCTGCTG
GTTTTTTTCTACTTCTCTTTGTGCTAG: 1.82 z-score
TTAGGACTGGACACTGGGTTCGTGCTA: -0.596 z-score
TCCCAAGTCTTGTTTTACAATGTGCTA: -0.0688 z-score
GTGTTTCTCAAATGTTTTGTTGTGCTA: 1.42 z-score
TTAGGACTTGGTCTCGGTTAGTGCTAG: 0.589 z-score
CACGGTTCCCTTTTCCTGACGTGCTAG: 0.126 z-score
TTAGGAGTGGGTATCGGTTAGTGCTAG: 4.5 z-score
GACGGTATCGACTATCGGGGCGTGCTA: 3.18 z-score
TTGTGTCTGGGCTTTTTCCCCGTGCTA: -0.458 z-score
TTAGGTATCGATTATCGGTTAGTGCTA: 8.43 z-score
GACGATAACAGTCTCGAGACGTGCTAG: 0.713 z-score
TTAGGTTTCGGTATCGTTTAGTGCTAG: 10.4 z-score
GACGGTATCCGTTTCCTGACGTGCTAG: 0.305 z-score
TTAAGACTGGACTTTCGGTTAGTGCTA: 9.83 z-score
TTAGGTATCGGTATCGGTAAGTGCTAG: 9.34 z-score
GACGGACTAGACACTGGGGACGTGCTA: -0.634 z-score
TTAGGTTTCCTTATCCTTTTGTGCTAG: 1.21 z-score
TTAGGTATTGGGACTGGGTTAGTGCTA: -0.227 z-score
GACGATTTGGGGTTTCGAGACGTGCTA: 1.31 z-score
TTAGATATCTGTTTCGATTAGTGCTAG: 8.5 z-score
TCAACCATCCTATGTAGAACTGTGCTA: 0.239 z-score
GACGGTTTCCACACTGGGGACGTGCTA: 0.131 z-score
TCACATATTTGTTTCCAACTGTGCTAG: 0.835 z-score

Excerpt of the above (series 4):
TTAGGTATTGGGACTGGGTTAGTGCTA: -0.227 z-score
TTAGGTTTCGGTATCGTTTAGTGCTAG: 10.4 z-score
GACGGACTAGACACTGGGGACGTGCTA: -0.634 z-score
GACGGTTTCCACACTGGGGACGTGCTA: 0.131 z-score
GACGATTTGGGGTTTCGAGACGTGCTA: 1.31 z-score
GACGGTATCCGTTTCCTGACGTGCTAG: 0.305 z-score
TTAGATATCTGTTTCGATTAGTGCTAG: 8.5 z-score
TCACATATTTGTTTCCAACTGTGCTAG: 0.835 z-score
TTAGGACTGGACACTGGGTTCGTGCTA: -0.596 z-score
